Measurements pooled from the literature.
Compare with care: the assays were run in different laboratories. ± marks the error that the study gave.
T1: HSP90AA1 723-732 C-terminal peptide M to I, N-terminal 5-carboxyfluorescein (Homo sapiens); DDTSRIEEVD
B1: PPP1R11 1-64 (Homo sapiens, UniProt O60927); chain MAEAGAGLSETVTETTVTVTTEPENRSLTIKLRKRKPEKKVEWTSDTVDNEHMGRRSSKCCCIY
B2: STUB1 (Homo sapiens, UniProt Q9UNE7); sequence looked up; chain MKGKEEKEGGARLGAGGGSPEKSPSAQELKEQGNRLFVGRKYPEAAACYGRAITRNPLVAVYYTNRALCYLKMQQHEQALADCRRALELDGQSVKAHFFLGQCQLEMESYDEAIANLQRAYSLAKEQRLNFGDDIPSALRIAKKKRWNSIEERRIHQESELHSYLSRLIAAERERELEECQRNHEGDEDDSHVRAQQACIEAKHDKYMADMDELFSQVDEKRKKRDIPDYLCGKISFELMREPCITPSGITYDRKDIEEHLQRVGHFDPVTRSPLTQEQLIPNLAMKEVIDAFISENGWVEDY
B3: FGF6 (Homo sapiens, UniProt P10767); chain SPAGTRANNTLLDSRGWGTLLSRSRAGLAGEIAGVNWESGYLVGIKRQRRLYCNVGIGFHLQVLPDGRISGTHEENPYSLLEISTVERGVVSLFGVRSALFVAMNSKGRLYATPSFQEECKFRETLLPNNYNAYESDLYQGTYIALSKYGRVKRGSKVSPIMTVTHFLPRI
Chain of UniProt Q61851 (whole entry, looked up): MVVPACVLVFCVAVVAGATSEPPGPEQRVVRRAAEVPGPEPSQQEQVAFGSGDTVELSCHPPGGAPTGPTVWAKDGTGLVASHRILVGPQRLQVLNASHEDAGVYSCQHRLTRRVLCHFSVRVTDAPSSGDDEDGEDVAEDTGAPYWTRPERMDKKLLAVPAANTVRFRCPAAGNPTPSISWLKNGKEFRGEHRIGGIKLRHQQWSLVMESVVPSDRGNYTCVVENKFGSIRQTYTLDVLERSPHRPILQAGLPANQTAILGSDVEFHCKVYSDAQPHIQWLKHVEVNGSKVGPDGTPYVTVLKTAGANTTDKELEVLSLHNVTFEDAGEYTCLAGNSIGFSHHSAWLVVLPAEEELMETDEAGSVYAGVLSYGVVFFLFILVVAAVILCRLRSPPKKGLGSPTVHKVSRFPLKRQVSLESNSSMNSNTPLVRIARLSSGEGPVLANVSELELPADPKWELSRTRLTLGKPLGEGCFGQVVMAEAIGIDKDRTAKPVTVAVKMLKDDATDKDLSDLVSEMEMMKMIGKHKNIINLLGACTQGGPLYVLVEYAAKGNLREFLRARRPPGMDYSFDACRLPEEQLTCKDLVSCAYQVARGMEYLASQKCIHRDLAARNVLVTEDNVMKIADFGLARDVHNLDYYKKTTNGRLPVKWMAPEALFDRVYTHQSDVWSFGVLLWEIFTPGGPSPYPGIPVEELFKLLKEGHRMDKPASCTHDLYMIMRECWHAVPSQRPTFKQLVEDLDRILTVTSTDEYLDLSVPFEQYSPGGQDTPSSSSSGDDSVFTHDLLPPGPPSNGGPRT
Chain of UniProt P62139 (whole entry, looked up): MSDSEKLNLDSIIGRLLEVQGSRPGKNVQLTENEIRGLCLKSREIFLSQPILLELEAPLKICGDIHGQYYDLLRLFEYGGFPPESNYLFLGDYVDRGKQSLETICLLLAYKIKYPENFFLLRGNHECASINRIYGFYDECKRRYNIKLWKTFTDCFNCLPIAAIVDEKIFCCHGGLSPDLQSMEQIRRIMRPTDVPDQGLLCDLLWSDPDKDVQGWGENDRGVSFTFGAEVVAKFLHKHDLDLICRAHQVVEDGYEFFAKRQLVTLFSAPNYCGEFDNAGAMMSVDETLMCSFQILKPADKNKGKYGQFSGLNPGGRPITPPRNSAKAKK
Chain of UniProt P05556 (whole entry, looked up): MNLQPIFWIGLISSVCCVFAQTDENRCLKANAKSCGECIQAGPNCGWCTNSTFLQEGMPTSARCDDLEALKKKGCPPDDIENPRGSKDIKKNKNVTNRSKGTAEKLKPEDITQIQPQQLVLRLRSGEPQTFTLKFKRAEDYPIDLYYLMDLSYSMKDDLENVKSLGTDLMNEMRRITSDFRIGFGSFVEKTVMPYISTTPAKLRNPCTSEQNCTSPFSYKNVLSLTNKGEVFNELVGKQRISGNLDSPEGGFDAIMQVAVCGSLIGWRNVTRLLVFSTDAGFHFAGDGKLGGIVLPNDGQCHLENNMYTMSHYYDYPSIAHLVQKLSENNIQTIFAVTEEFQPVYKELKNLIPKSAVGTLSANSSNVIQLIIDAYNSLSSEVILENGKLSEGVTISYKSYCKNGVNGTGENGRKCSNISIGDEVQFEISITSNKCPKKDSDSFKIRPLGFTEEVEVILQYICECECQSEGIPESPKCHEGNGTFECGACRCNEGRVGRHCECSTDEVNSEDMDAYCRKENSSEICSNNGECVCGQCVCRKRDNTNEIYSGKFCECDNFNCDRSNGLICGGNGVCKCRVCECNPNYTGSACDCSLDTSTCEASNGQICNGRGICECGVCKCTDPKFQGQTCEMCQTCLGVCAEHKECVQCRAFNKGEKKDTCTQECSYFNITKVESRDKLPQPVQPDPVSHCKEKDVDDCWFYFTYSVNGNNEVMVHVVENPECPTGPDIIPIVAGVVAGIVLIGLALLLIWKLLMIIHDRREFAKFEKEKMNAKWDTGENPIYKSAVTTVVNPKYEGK
Chain of UniProt P21554 (whole entry, looked up): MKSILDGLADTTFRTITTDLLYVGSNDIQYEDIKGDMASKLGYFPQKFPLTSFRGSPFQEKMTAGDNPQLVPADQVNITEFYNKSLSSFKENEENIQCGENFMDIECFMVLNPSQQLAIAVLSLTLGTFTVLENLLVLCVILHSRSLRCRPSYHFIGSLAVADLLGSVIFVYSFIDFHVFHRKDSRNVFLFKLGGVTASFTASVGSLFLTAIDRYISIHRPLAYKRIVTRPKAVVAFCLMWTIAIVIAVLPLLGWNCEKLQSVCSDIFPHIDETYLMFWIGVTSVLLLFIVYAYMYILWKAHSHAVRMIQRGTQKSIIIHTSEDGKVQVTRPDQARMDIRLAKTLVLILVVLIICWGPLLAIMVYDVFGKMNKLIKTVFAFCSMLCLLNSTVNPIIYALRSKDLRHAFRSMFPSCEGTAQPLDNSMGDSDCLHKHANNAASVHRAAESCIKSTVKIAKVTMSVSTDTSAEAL
Chain of UniProt P70618 (whole entry, looked up): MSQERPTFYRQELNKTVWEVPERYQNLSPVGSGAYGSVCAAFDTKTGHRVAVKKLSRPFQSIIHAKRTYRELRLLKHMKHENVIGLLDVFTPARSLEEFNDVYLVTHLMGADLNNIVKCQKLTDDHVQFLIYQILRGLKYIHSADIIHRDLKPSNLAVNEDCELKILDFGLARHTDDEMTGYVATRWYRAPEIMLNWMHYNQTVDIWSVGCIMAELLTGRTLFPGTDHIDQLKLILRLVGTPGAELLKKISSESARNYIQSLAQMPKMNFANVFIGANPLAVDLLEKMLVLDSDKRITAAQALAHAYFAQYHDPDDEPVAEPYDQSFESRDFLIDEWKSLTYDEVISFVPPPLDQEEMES
Chain of UniProt Q24547 (whole entry, unmodified, looked up): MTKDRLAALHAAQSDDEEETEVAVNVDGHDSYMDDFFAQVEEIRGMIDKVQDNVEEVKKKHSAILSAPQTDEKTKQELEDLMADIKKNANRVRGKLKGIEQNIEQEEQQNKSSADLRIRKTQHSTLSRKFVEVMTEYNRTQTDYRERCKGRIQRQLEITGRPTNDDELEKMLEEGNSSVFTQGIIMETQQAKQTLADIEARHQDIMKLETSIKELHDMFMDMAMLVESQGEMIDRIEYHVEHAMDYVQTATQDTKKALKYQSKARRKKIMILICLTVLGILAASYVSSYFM
Chain of UniProt O95838 (whole entry, looked up): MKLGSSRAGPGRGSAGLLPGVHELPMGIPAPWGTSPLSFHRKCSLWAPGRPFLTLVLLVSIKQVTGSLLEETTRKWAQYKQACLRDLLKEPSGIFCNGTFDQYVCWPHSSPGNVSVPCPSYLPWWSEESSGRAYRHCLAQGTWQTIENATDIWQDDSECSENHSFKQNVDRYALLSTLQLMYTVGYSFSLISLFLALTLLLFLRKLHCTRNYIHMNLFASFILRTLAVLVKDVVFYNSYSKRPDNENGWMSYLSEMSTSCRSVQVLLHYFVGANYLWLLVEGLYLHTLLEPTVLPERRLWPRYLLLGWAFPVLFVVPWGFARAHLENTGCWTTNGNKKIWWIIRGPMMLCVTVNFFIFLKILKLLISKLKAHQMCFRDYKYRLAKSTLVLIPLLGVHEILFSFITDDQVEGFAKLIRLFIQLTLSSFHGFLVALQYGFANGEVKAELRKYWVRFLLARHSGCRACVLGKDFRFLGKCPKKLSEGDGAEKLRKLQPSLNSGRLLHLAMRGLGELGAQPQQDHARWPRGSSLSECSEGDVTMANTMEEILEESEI
Chain of UniProt P21555 (whole entry, looked up): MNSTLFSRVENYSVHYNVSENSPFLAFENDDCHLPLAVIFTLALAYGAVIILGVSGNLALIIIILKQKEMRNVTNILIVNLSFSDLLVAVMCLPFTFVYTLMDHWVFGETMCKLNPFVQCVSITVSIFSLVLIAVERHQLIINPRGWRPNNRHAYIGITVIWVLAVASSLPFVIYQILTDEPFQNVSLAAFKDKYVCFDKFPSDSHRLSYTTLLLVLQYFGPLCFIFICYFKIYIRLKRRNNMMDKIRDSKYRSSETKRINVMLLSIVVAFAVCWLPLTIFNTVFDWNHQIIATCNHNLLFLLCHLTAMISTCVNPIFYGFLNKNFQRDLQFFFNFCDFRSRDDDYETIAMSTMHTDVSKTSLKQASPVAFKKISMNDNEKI
Chain of UniProt Q9UQ84 (whole entry, looked up): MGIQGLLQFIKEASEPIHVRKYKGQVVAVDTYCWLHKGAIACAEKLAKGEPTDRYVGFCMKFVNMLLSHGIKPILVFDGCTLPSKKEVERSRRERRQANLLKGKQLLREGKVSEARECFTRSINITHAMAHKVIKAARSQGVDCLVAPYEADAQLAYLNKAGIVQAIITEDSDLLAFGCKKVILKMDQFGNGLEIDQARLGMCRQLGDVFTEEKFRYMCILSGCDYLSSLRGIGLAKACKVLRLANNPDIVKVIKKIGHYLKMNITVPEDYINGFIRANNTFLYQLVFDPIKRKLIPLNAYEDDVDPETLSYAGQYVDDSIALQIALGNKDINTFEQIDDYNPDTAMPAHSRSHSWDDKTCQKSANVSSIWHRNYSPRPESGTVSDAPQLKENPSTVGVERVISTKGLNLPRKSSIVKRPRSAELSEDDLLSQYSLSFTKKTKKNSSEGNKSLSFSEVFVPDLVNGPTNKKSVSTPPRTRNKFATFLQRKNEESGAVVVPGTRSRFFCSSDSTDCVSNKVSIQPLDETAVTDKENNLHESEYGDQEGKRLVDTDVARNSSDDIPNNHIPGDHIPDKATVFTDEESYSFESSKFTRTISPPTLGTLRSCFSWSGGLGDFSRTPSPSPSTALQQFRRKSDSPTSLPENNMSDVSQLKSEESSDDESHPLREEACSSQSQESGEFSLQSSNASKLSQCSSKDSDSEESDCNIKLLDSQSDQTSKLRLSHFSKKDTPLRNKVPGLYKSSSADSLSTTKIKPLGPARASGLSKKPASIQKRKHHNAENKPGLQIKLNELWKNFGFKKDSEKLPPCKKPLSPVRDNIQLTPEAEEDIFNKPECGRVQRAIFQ

YAYPGPARPASLGLGP (CDX1 D-site peptide (Homo sapiens))  IC50 (Mapk14, pT180, pY182 (Rattus norvegicus, UniProt P70618); kinase activity, inhibitor, competitive kinase inhibition assay; peptide; added: ATP 1 mM): > 100 µM
B1 (PPP1R11 1-64)  IC50 shift (PPP1CA (Oryctolagus cuniculus, UniProt P62139); PP1 activity, inhibitor; baseline: wild type Inh3): 604 fold
B2 (STUB1)  affinity change (T1, HSP90AA1 723-732 C-terminal peptide M to I, N-terminal 5-carboxyfluorescein (Homo sapiens); fluorescence polarisation; DnaJC7, mutant tracer, added: 5-Fam peptide tracer 20 nM; baseline: wt Hsp90α tracer, higher = stronger binding): > 2 fold
Prkcb (Mus musculus, UniProt P68404)  association increase (integrin β3 (Mus musculus, UniProt O54890); co-IP; mouse aortic SMCs; hyperglycemia; baseline: euglycemic conditions, higher = more association): 4.3 fold
WRN fragment (Homo sapiens)  incision (EXO1 (Homo sapiens, UniProt Q9UQ84); replication fork incision by EXO1, activator; 4 nM, 15 min, 37 °C; higher = more incision): 4 fold
GLP-2 mature, (R,R)-ACPC at 4, C-terminal amide  relative cAMP production (GLP2R (Homo sapiens, UniProt O95838); cAMP, agonist; baseline: GLP-2, higher = more cAMP): 57%
TFPI (Homo sapiens, UniProt P10646-1)  maximum factor Xa generated (F3/F7 TF-fVIIa complex (Homo sapiens); factor Xa generation; EA.hy926; LPS-treated, endogenous TF, α-cyclodextrin, control): 26.5 nM
CNR1 (Homo sapiens, UniProt P21554)  relative binding (ITGB1 (Homo sapiens, UniProt P05556); co-IP; endothelial cells, cell extracts; Ca2+-free, EGTA, added: anandamide 10 µM; baseline: basal, without anandamide, higher = more CB1R bound): 0.3 ± 0.21 fold
B3 (FGF6)  cell proliferation (FGFR3 isoform IIIc (unknown, UniProt Q61851); cell proliferation, MTT; BaF3-FGFR3c; 20 nM, 48 h, added: heparan sulfate 4.9 µg/mL; baseline: FGF 1 with heparin, higher = more proliferation): 17%
protein 10-407 del142-163 (Drosophila melanogaster, UniProt Q8IML5)  binding increase (Syx1A 1-267 L168A/E169A (Drosophila melanogaster, UniProt Q24547); pull-down; added: Ca2+-CaM; baseline: before Ca2+-CaM, higher = more binding): 2 fold
NPY N7F/Q34P  membrane hyperpolarisation (Npy1r (Rattus norvegicus, UniProt P21555); agonist, whole-cell current clamp; BLA pyramidal neurons, rat brain slices; 1 µM): 5.5 mV
FN1 intact plasma (Homo sapiens)  half saturation (THBS1 fragment (Homo sapiens); solid-phase binding): 0.7 µg/mL
